Results from different studies.
Every numbered part comes from another study and shows a few of its results, in no order. Changes are numbered by the printed parent chain.
Chain of UniProt Q9ZPY6 (whole entry, looked up): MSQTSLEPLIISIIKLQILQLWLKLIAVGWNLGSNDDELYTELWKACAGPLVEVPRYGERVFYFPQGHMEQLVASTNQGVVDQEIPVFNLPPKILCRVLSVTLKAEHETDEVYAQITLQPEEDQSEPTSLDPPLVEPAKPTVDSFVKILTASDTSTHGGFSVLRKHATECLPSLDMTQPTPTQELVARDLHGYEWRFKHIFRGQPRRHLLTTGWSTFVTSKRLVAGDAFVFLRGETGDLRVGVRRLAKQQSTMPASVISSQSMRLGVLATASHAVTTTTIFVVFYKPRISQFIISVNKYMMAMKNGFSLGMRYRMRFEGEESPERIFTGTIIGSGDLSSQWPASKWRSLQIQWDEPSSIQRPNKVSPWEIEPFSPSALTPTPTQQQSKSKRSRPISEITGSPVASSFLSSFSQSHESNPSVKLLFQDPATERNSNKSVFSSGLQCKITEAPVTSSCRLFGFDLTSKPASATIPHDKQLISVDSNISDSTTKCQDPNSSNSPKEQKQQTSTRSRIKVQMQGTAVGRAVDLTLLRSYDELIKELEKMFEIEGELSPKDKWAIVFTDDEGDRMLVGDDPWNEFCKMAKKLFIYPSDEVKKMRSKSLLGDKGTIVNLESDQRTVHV
Chain of UniProt Q8RYC8 (whole entry, looked up): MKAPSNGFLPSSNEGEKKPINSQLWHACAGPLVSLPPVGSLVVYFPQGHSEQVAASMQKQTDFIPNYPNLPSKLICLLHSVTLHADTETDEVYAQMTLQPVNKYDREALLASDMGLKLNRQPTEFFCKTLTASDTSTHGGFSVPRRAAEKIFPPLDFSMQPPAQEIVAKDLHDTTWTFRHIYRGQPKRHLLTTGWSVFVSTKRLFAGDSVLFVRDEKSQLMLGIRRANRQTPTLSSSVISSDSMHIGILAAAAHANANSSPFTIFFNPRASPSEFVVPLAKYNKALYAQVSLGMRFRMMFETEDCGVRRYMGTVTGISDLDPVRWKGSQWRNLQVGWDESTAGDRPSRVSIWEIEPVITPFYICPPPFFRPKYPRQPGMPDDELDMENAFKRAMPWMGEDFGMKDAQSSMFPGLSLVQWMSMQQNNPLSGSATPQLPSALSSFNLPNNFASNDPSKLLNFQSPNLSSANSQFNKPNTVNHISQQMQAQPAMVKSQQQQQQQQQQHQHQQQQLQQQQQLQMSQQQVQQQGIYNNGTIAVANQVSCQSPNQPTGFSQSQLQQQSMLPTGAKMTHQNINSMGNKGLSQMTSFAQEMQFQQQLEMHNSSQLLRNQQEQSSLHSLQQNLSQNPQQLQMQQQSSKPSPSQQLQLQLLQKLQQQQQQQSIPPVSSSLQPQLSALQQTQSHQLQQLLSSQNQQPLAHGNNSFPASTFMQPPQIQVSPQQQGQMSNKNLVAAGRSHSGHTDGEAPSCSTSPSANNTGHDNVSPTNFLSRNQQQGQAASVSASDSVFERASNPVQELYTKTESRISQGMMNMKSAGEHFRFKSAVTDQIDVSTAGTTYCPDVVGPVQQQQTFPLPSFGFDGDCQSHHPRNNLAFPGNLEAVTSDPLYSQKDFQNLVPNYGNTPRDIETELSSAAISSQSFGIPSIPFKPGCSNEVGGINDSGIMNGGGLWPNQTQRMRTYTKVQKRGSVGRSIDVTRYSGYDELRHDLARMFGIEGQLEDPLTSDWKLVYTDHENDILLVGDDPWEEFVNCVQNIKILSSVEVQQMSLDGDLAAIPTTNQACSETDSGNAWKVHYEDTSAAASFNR
Chain of UniProt Q9LQE8 (whole entry, looked up): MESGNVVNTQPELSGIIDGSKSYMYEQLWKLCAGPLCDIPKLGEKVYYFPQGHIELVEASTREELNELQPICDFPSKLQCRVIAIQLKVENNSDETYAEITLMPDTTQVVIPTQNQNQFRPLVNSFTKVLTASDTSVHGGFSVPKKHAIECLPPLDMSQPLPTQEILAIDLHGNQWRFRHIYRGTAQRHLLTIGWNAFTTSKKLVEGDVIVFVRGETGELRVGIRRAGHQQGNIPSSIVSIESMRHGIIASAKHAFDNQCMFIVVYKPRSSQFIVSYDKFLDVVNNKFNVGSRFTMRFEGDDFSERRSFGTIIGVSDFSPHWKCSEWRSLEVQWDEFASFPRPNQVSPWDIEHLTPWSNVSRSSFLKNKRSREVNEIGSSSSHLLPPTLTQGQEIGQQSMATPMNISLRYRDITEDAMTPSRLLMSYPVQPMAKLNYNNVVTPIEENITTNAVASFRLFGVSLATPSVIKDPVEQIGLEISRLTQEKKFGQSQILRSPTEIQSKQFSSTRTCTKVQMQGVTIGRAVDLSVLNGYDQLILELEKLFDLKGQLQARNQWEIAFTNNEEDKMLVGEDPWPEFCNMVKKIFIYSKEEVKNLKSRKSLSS
Chain of UniProt Q93YR9 (whole entry, looked up): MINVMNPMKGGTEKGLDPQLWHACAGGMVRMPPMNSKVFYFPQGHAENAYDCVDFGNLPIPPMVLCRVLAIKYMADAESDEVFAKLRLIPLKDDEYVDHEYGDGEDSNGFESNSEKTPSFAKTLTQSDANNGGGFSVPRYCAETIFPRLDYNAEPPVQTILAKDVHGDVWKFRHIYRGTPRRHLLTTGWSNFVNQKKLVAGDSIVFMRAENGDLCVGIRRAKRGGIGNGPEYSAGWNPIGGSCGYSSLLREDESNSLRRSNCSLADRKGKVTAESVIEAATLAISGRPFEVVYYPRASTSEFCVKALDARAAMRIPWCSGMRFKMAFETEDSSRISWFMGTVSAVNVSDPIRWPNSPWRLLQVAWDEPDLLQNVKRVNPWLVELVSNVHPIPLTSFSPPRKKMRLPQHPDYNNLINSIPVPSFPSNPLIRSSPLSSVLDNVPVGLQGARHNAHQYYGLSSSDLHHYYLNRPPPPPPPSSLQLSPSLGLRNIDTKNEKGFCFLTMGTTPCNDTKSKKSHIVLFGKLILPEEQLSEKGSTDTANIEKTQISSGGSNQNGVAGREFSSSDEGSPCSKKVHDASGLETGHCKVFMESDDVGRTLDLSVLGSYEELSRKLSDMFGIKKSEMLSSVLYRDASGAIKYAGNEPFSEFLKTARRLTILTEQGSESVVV
Chain of UniProt Q9C7I9 (whole entry, looked up): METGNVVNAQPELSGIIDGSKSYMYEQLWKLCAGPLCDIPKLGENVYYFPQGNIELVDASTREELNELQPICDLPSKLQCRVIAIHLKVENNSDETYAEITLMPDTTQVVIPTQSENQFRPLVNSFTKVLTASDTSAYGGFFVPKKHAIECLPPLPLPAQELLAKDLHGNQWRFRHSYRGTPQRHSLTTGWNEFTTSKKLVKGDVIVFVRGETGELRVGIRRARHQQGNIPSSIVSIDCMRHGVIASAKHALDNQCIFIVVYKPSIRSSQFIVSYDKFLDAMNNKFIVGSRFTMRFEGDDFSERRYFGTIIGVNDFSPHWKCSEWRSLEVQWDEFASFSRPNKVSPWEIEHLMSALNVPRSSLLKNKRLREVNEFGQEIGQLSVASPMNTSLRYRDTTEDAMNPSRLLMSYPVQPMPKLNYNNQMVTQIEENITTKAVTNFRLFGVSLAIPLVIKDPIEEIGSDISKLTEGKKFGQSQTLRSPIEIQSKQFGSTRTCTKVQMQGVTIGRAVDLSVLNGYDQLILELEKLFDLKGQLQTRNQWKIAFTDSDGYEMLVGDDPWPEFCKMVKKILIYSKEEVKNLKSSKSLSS

Set 1 — Sequence: B1 (ARF9 519-638); method: two-hybrid; notes: weak activation fusion; reading: higher = firmer interaction; measurement: positive tests
B1: ARF9 519-638 (Arabidopsis thaliana, UniProt Q9XED8); chain SSSTRSRTKVQMQGVPVGRAVDLNALKGYNELIDDIEKLFDIKGELRSRNQWEIVFTDDEGDMMLVGDDPWPEFCNMVKRIFIWSKEEVKKMTPGNQLRMLLREVETTLTTTSKTDNHSN
partner = ARF19 948-1086 (Arabidopsis thaliana, UniProt Q8RYC8); reference = out of 4 tests; result = 0
partner = ARF11 500-622 (Arabidopsis thaliana, UniProt Q9ZPY6); reference = out of 2 tests; result = 0
partner = ARF12 500-593 (Arabidopsis thaliana, UniProt Q9XID4); reference = out of 4 tests; result = 0
partner = ARF20 484-590 (Arabidopsis thaliana, UniProt Q9C7I9); reference = out of 2 tests; result = 2
partner = ARF16 570-670 (Arabidopsis thaliana, UniProt Q93YR9); reference = out of 4 tests; result = 0
partner = ARF14 497-605 (Arabidopsis thaliana, UniProt Q9LQE8); reference = out of 3 tests; result = 0

Set 2 — method: universal PBM; form: double-stranded DNA, one strand shown; medium: in vitro; tested at: 600 nM; reading: higher = stronger binding; measurement: E-score
Target: Sal-like protein 4, full length isoform A (SALL4, Homo sapiens, UniProt Q9UJQ4, residues 1-1053)
Chain of UniProt Q9UJQ4 (whole entry, looked up): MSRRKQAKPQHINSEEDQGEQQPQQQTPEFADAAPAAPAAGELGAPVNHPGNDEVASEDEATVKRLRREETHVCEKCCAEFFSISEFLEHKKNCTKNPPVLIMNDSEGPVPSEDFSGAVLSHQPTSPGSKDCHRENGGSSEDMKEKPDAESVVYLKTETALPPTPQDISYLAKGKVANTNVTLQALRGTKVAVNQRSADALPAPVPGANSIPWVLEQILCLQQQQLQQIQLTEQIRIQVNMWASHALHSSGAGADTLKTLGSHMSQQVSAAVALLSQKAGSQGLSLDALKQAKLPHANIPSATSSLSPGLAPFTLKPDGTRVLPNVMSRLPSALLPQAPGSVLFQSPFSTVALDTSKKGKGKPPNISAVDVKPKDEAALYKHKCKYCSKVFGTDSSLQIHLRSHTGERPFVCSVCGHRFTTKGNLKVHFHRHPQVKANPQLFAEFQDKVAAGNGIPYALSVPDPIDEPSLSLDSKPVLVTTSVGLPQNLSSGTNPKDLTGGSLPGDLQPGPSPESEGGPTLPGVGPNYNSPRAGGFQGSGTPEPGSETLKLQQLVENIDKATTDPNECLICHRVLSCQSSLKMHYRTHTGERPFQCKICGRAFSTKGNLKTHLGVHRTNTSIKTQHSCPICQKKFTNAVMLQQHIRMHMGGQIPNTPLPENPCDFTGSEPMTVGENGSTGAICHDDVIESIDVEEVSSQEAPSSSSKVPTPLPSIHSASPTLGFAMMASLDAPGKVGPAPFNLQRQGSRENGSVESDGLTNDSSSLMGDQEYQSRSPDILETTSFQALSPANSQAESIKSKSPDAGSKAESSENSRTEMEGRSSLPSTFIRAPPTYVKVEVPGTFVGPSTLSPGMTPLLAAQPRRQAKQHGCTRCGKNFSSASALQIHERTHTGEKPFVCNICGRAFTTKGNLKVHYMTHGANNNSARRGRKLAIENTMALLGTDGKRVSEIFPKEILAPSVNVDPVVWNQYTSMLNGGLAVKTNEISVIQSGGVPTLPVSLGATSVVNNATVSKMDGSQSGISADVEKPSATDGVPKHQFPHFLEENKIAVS
Notes: 8-mer, flanks averaged, mean of replicates
Sequence = AATAGGAG; result = 0.128
Sequence = CTTCCTTC; result = -0.0445
Sequence = GTAGCGAC; result = -0.213
Sequence = CGATAAAG; result = 0.13
Sequence = CGACTCTC; result = -0.151
Sequence = CGGTCGAC; result = -0.259
Sequence = GTCCCGTA; result = -0.0841
Sequence = ACATGAAG; result = 0.172
Sequence = GTACCGAC; result = -0.228
Sequence = TCTTTACA; result = 0.159
Sequence = CGATTATA; result = 0.328
Sequence = ACAGATCT; result = -0.0118
Sequence = CTCTCCAA; result = 0.0402
Sequence = AGTGTAAC; result = 0.0215
Sequence = ATCAAGCG; result = 0.0169
Sequence = CCGGCCGC; result = -0.416
Sequence = GTAAATCA; result = 0.219
Sequence = GCACAGCA; result = -0.164

Set 3 — target: CCND3, cyclin fold, Cln2 fusion (human); method: yeast growth competition, sequencing; medium: yeast; notes: weak parent motif; reference: not given; reading: higher = stronger binding; measurement: normalised enrichment score
Starting sequence: AKAP12 docking peptide (human); GSPLKKLFTSTGL
Change = GAPLKKLFTSTGL [S2A]; result = 0.143
Change = GSPAKKLFTSTGL [L4A]; result = 0.0589
Change = GSPLAKLFTSTGL [K5A]; result = 0.0117
Change = GSPLKKLFASTGL [T9A]; result = 0.125
Change = GSALKKLFTSTGL [P3A]; result = 0.112
Change = GSPLRKLFTSTGL [K5R]; result = 0.0014
Change = GSPLKKAFTSTGL [L7A]; result = 0.0609
Change = GSPLRKLLTSTGL [K5R F8L]; result = -0.366
Change = GSPLKALFTSTGL [K6A]; result = 0.189
Change = GSPLAKAFTSTGL [K5A L7A]; result = -0.0567

Set 4 — method: DHFR PCA, deep sequencing; medium: yeast; together with: (+)-ABA 2500 µM; reference: wild-type fitted maximum; reading: higher = stronger binding; measurement: relative binding score
Target: ABI1, truncated, D143A, DHFR fusion (Arabidopsis thaliana)
Notes: methotrexate growth selection, single substitutions
Starting sequence: PYL1, truncated, DHFR fusion (Arabidopsis thaliana); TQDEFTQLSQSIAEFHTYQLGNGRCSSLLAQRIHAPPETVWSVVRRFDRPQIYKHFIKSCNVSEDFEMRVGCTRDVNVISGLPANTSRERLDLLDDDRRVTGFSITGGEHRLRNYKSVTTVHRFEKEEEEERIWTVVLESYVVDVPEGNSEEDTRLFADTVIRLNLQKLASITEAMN; partner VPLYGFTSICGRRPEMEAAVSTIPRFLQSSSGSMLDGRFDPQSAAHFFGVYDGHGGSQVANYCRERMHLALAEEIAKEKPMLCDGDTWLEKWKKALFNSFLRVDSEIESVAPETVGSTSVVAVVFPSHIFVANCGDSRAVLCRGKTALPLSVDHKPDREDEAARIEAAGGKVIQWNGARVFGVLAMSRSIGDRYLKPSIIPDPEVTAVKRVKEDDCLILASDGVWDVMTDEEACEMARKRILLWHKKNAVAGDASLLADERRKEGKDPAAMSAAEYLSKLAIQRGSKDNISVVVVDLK
Change = L156C; result = 95%
Change = G23F; result = 92.3%
Change = S140Q; result = 56.5%
Change = D144Y; result = 75.2%
Change = T106D; result = 99%
Change = R90W; result = 58.1%
Change = I162W; result = 8.05%
Change = R45H; result = 75.8%
Change = G102A; result = 98%
Change = S42N; result = 110%
Change = V40Y; result = -17.8%
Change = E109L; result = 96.8%
Change = L8I; result = 103%
Change = E151G; result = 96.3%
Change = L82W; result = 81.6%
Change = C72A; result = 95.5%
Change = N177R; result = 84%
Change = P83L; result = 23.7%

Set 5 — method: protein-binding microarray; form: double-stranded DNA, one strand shown; medium: in vitro; tested at: 940 nM top; notes: 60-bp whole probe; together with: salmon DNA 0.4 mg/ml; reference: random background probes; reading: higher = stronger binding; measurement: fitted relative affinity; shared flanks, not repeated: GCCTAGCAC … GTCTTGATTCGCTTGACGCTGCTG
Target: Interferon regulatory factor 5, full length, phosphomimetic (IRF5, Homo sapiens, UniProt Q13568-2, residues 1-514, S451D/S453D/S456D/S462D)
Sequence = GACGGACTGGACACTGGCGACGTGCTA; result = -0.674 z-score
Sequence = TCACCATTAAATTTTAAACTGTGCTAG; result = 0.447 z-score
Sequence = CATTATATTTTAATCACATAGTGCTAG; result = 0.707 z-score
Sequence = CACGGTATCGGACTGGGGACGTGCTAG; result = 2.29 z-score
Sequence = AATGTTTTGTTTTTCATTATGTGCTAG; result = 1.15 z-score
Sequence = GATAATTTATAAATAAAAAAGTGCTAG; result = -0.0503 z-score
Sequence = TTAGGACCGGGGACTGGGTTAGTGCTA; result = -0.427 z-score
Sequence = TCACTTCTCCCTTTCAGACTGTGCTAG; result = 0.988 z-score
Sequence = TTAGATATCAGTATCGATTAGTGCTAG; result = 4.53 z-score
Sequence = TTAGGTTTCGGTATCGGTAAGTGCTAG; result = 15.4 z-score
Sequence = TCATATGTGACCTTTTTAACTGTGCTA; result = 0.242 z-score
Sequence = CTTTTATTAGTGACTCAGCACGTGCTA; result = 0.375 z-score
Sequence = GGGCATTTTTTTATCAATCAGTGCTAG; result = 0.672 z-score
Sequence = TTAGGACTGGGAACTGGGTTAGTGCTA; result = -0.45 z-score
Sequence = TCAGATGTCAAACTCACACTGTGCTAG; result = -0.464 z-score
Sequence = TTATATTTCGGGTTTCGATTAGTGCTA; result = 6.37 z-score
Sequence = TTACGTTTCCTTATCCTTTAGTGCTAG; result = 2.23 z-score
Sequence = TTTGAACTGGGGTATCGATTAGTGCTA; result = 3.08 z-score
Sequence = TTAGATATCGGGTATAGATTAGTGCTA; result = 0.238 z-score
Sequence = TTGGGTATCGGTTTCGGTTAGTGCTAG; result = 11.8 z-score
Sequence = GACGGTATCGGTATGGGGACGTGCTAG; result = 8 z-score
Sequence = TTAGGTATGCTACTGCTTTAGTGCTAG; result = -0.575 z-score
Sequence = GGATGAGCAAGGGGGCCTCGGTGCTAG; result = -0.0525 z-score
Sequence = GACGATATCAGTTTCGTGACGTGCTAG; result = 1.62 z-score
Sequence = TTAAATTTCGGGTATCGATTAGTGCTA; result = 3.69 z-score

Set 6 — method: RNAcompete; form: RNA; medium: in vitro; tested at: 20 nM; notes: 7-mer, probes averaged, single round; reference: mean of 7-mers; reading: higher = stronger binding; measurement: 7-mer Z-score
Target: PABPC1L2, full length, GST fusion (mouse, UniProt A0ABA7IW68)
Construct (chain): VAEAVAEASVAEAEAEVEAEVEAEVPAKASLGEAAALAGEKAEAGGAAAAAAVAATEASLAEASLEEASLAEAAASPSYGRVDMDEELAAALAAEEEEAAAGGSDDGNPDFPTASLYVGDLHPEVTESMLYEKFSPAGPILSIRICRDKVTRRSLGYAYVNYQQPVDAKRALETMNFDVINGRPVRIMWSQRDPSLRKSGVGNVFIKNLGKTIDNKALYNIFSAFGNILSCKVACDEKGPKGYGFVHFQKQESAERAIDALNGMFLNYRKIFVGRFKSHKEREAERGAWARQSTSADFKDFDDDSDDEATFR
Sequence = AAGUAUA; result = 0.129
Sequence = CACGCAA; result = 0.0424
Sequence = AUACACU; result = -0.115
Sequence = AAAUAGG; result = 2.85
Sequence = UUCCGGA; result = -0.315
Sequence = AGUCAAG; result = -0.0736
Sequence = GGAAGCC; result = -0.104
Sequence = CAACGGU; result = -0.0047
Sequence = UCGGAGA; result = -0.0736
Sequence = AGCGGAG; result = 0.0823
Sequence = UGCGGCC; result = -0.267
Sequence = CGUAAUC; result = -0.398
Sequence = CUAAGAG; result = -0.113
Sequence = GGCACCA; result = 0.124
Sequence = ACGCAAG; result = -0.103

Mixed results
Substance = PhoQ, residues 284 288 289 292 302 303 SLANKL; target = PhoP, residues 12 14 15 18 19 IQSYL (Escherichia coli, UniProt P23836); assay = Sort-seq, refers to: YFP reporter; system = E. coli; conditions = PhoQ-PhoP variant library, together with: 10 µM Mg2+; how to read = reference: high Mg2+ state, higher = stronger signaling; measurement = fold induction; result = 12.8
